Experimental data of several laboratories.
Protocols differ between the studies behind these lines. ± gives the spread as reported.
Chain of UniProt P00761 (whole entry, looked up): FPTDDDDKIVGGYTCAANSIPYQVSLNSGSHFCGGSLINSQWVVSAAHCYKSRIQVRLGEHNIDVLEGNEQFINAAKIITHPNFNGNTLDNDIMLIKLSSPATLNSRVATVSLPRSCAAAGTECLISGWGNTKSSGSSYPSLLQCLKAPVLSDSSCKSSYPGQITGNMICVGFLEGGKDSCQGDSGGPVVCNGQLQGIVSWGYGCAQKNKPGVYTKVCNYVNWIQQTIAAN

For `CC(=O)N[C@H](C(=O)N[C@H](C(=O)N[C@@H](CCCNC(=N)N)C(=O)N[C@@H](CC(N)=O)C(=O)N[C@@H](CC(=O)O)C(=O)N[C@H](C(=O)N1CCC[C@@H]1C(=O)N1CCC[C@H]1C(=O)N[C@@H](CC(=O)O)C(=O)N[C@@H](CO)C(=O)N[C@@H](CC(C)C)C(=O)N[C@@H](CC(C)C)C(=O)N[C@H](C(=O)N[C@@H](Cc1ccccc1)C(N)=O)C(C)C)C(C)C)[C@@H](C)O)C(C)C`, peptide amount read “not detected” (HEK-293T; subcellular fractionation LC-MS; nuclear fraction; 20 µM, 2 h).
With `N#C[C@@H]1CC(F)(F)CN1C(=O)CNC(=O)c1ccnc2c(NC(=O)[C@@H](N)CCCCNC(=O)CCOCCOCCOCCOCCOCCOCCNC(=O)CN3CCN(CC(=O)[O-])CCN(CC(=O)[O-])CCN(CC(=O)[O-])CC3)cccc12.[177Lu+3]` the tracer uptake was 1.17 %ID/g (U-87 MG tumour model; host not given, bone; 1 h, tumour-bearing).
`CC(C)OCCOCc1ccc(OCC(O)CN(N=O)C(C)C)cc1` (stereo not drawn): “revertant fold increase” 0.9 fold (Salmonella typhimurium; Ames test; TA98; 158 µg/plate, 30 % rat S9; relative to: solvent control).
With `CC(=O)Nc1ccc([C@H]2[C@@H](F)[C@@H](F)C[C@@H](F)[C@H]2F)cc1` the hepatic clearance was 13 mL/min/kg (liver microsome stability; human liver microsomes; 1 µM, without NADPH).
For `NC(=O)c1cc(-c2ccc3c(c2)OCCO3)n(-c2ccccc2)n1`, the CC50 was greater than 100 µM (HeLa; cell growth or viability).
For `O=C1C2CC3CC1CC(C(=O)N1CCN(c4ccc([N+](=O)[O-])c5ncccc45)CC1)(C3)C2`, “revertant fold increase” read 0.8 (Salmonella typhimurium; Ames test; TA97a; 0.05 µg/well, with S9; relative to: vehicle).
With `N#C[C@@H]1CC(F)(F)CN1C(=O)CNC(=O)c1ccnc2c(NC(=O)CCOCCOCCOCCOCCOCCOCCNC(=O)[C@H](CCCCNC(=O)CN3CCN(CC(=O)[O-])CCN(CC(=O)[O-])CCN(CC(=O)[O-])CC3)NC(=O)CCCc3ccc(I)cc3)cccc12.[177Lu+3]` the tracer uptake was 4.59 %ID/g (U-87 MG tumour model; host not given, pancreas; 1 h, tumour-bearing).
`O=C(CCC(F)(F)F)Nc1ccc([C@H]2[C@@H](F)[C@@H](F)C[C@@H](F)[C@H]2F)cc1` gave a hepatic clearance of 19 mL/min/kg (hepatocyte stability; cryopreserved human hepatocytes; 1 µM).
`CNC(=O)C1CCCN(C(=O)C2CC3CCC2N3C(=O)[C@@H]2C[C@@H](O)CN2C(=O)NCc2cccc(Cl)c2F)C1` (mixture of isomers) gave a 6β-hydroxytestosterone formation of 171 ng/mL (CYP3A4 (human); inhibitor, time-dependent inhibition; 16.7 µM, preincubated without NADPH, together with: testosterone substrate).
For `O=C(c1ccc(C2CCCCC2)cc1)N1CCC(F)CC1`, the hepatic clearance was 17 mL/min/kg (hepatocyte stability; cryopreserved human hepatocytes; 1 µM).
The revertants of `Nc1nc2cc(C(=O)c3ccc(F)cc3)ccc2[nH]1` is reported as 18.3 revertants per plate (Salmonella typhimurium; Ames preincubation test; TA1535; 39.0 µg per plate, 3 days, without S9).
For `F[C@@H]1[C@H](c2ccc(-c3ccc(N4CCCC4)nc3)cc2)[C@H](F)[C@H](F)C[C@@H]1F`, the hepatic clearance was 10 mL/min/kg (hepatocyte stability; cryopreserved rat hepatocytes; 1 µM).
With `Cc1cc(=O)c2c(O)c3c(O[C@@H]4O[C@H](CO)[C@@H](O)[C@H](O)[C@H]4O)cc(O)cc3cc2o1` the cell viability was 76 ± 6.88% (HepaRG co-cultured with HK-2; MTT; 33.33 µM, 48 h; relative to: untreated control).
The fragment formed of `CCCCCCCCCCCCCCCC(=O)N[C@@H](CCC(=O)NCCCC[C@H](NC(=O)[C@H](CCC(N)=O)NC(=O)[C@H](Cc1c[nH]cn1)NC(=O)[C@@H](NC(=O)[C@H](CCCCN)NC(=O)[C@H](CC(=O)O)NC(=O)[C@H](CCSC)NC(=O)[C@H](C)NC(=O)[C@@H](NC(=O)[C@H](CO)NC(=O)[C@H](Cc1ccc(O)cc1)NC(=O)[C@H](CC(=O)O)NC(=O)[C@H](CO)NC(=O)[C@@H](NC(=O)[C@H](Cc1ccccc1)NC(=O)[C@@H](NC(=O)CNC(=O)[C@H](CCC(=O)O)NC(=O)[C@H](C)NC(=O)[C@H](Cc1ccc(O)cc1)NCC(F)(F)F)[C@@H](C)O)[C@@H](C)CC)[C@@H](C)CC)[C@@H](C)CC)C(=O)N[C@@H](CC(=O)O)C(=O)N[C@@H](Cc1ccccc1)C(=O)N[C@H](C(=O)N[C@@H](CC(N)=O)C(=O)N[C@@H](Cc1c[nH]c2ccccc12)C(=O)N[C@@H](CC(C)C)C(=O)N[C@@H](CC(C)C)C(=O)N[C@@H](C)C(=O)N[C@@H](CCC(N)=O)C(=O)N[C@@H](CCCCN)C(=O)NCC(=O)N[C@@H](CCCCN)C(=O)N[C@@H](CCCCN)C(=O)N[C@@H](CC(N)=O)C(=O)N[C@@H](CC(=O)O)C(=O)N[C@@H](Cc1c[nH]c2ccccc12)C(=O)N[C@@H](CCCCN)C(=O)N[C@@H](Cc1c[nH]cn1)C(=O)N[C@@H](CC(N)=O)C(=O)N[C@H](C(=O)N[C@H](C(=O)N[C@@H](CCC(N)=O)C(=O)O)[C@@H](C)O)[C@@H](C)CC)C(C)C)C(=O)O` is reported as 10% (Trypsin (Sus scrofa, UniProt P00761); LC-MS, measured: fragment 1-33; 18 h, pH 8.0, 37 °C, together with: trypsin 2.5 mg/mL).
With `O=C(Nc1ccc([C@H]2[C@@H](F)[C@@H](F)C[C@@H](F)[C@H]2F)cc1)C1(N2CCOCC2)CC1` the hepatic clearance was 44 mL/min/kg (hepatocyte stability; cryopreserved rat hepatocytes; 1 µM).

Some of these lines once more:
The fragment formed of `CCCCCCCCCCCCCCCC(=O)N[C@@H](CCC(=O)NCCCC[C@H](NC(=O)[C@H](CCC(N)=O)NC(=O)[C@H](Cc1c[nH]cn1)NC(=O)[C@@H](NC(=O)[C@H](CCCCN)NC(=O)[C@H](CC(=O)O)NC(=O)[C@H](CCSC)NC(=O)[C@H](C)NC(=O)[C@@H](NC(=O)[C@H](CO)NC(=O)[C@H](Cc1ccc(O)cc1)NC(=O)[C@H](CC(=O)O)NC(=O)[C@H](CO)NC(=O)[C@@H](NC(=O)[C@H](Cc1ccccc1)NC(=O)[C@@H](NC(=O)CNC(=O)[C@H](CCC(=O)O)NC(=O)[C@H](C)NC(=O)[C@H](Cc1ccc(O)cc1)NCC(F)(F)F)[C@@H](C)O)[C@@H](C)CC)[C@@H](C)CC)[C@@H](C)CC)C(=O)N[C@@H](CC(=O)O)C(=O)N[C@@H](Cc1ccccc1)C(=O)N[C@H](C(=O)N[C@@H](CC(N)=O)C(=O)N[C@@H](Cc1c[nH]c2ccccc12)C(=O)N[C@@H](CC(C)C)C(=O)N[C@@H](CC(C)C)C(=O)N[C@@H](C)C(=O)N[C@@H](CCC(N)=O)C(=O)N[C@@H](CCCCN)C(=O)NCC(=O)N[C@@H](CCCCN)C(=O)N[C@@H](CCCCN)C(=O)N[C@@H](CC(N)=O)C(=O)N[C@@H](CC(=O)O)C(=O)N[C@@H](Cc1c[nH]c2ccccc12)C(=O)N[C@@H](CCCCN)C(=O)N[C@@H](Cc1c[nH]cn1)C(=O)N[C@@H](CC(N)=O)C(=O)N[C@H](C(=O)N[C@H](C(=O)N[C@@H](CCC(N)=O)C(=O)O)[C@@H](C)O)[C@@H](C)CC)C(C)C)C(=O)O` is reported as 10% (Trypsin (Sus scrofa, UniProt P00761); LC-MS, measured: fragment 1-33; 18 h, pH 8.0, 37 °C, together with: trypsin 2.5 mg/mL).
With `Cc1cc(=O)c2c(O)c3c(O[C@@H]4O[C@H](CO)[C@@H](O)[C@H](O)[C@H]4O)cc(O)cc3cc2o1` the cell viability was 76 ± 6.88% (HepaRG co-cultured with HK-2; MTT; 33.33 µM, 48 h; relative to: untreated control).
